Measured values pooled from the literature.
Parts stem from different laboratories: compare values within a part only.

Series 1
Target: Interferon regulatory factor 5, full length, phosphomimetic (IRF5, Homo sapiens, UniProt Q13568-2, residues 1-514, K96S/S451D/S453D/S456D/S462D)
Technique: protein-binding microarray
Molecule type: double-stranded DNA, one strand shown
Matrix: in vitro
Tested at: 250 nM
Setting: 60-bp whole probe
Added: salmon DNA 0.4 mg/ml
Relative to: random background probes
Reading: higher = stronger binding
All sequences stand within: GCCTAGCAC … GTGCTAGGTCTTGATTCGCTTGACGCTGCTG
`CCAGATTTCCCCACCATCTA` gave a log fluorescence of 0.0229 z-score.
With `TTAGGTCACCTTCTCCTTTA` the log fluorescence was -0.0348 z-score.
`GACGGACTGCTTTTCCTGAC` gave a log fluorescence of -0.0924 z-score.
With `TTAGGTTTCCTACTGCATTA` the log fluorescence was 0.56 z-score.
`AACTCTTTGCAGATAAATAC` has a log fluorescence of 0.278 z-score.

Series 2
Target: Ras GTPase-activating protein-binding protein 1, RRM domain (G3BP1, Homo sapiens, UniProt Q13283)
Sequence of UniProt Q13283 (whole entry, looked up): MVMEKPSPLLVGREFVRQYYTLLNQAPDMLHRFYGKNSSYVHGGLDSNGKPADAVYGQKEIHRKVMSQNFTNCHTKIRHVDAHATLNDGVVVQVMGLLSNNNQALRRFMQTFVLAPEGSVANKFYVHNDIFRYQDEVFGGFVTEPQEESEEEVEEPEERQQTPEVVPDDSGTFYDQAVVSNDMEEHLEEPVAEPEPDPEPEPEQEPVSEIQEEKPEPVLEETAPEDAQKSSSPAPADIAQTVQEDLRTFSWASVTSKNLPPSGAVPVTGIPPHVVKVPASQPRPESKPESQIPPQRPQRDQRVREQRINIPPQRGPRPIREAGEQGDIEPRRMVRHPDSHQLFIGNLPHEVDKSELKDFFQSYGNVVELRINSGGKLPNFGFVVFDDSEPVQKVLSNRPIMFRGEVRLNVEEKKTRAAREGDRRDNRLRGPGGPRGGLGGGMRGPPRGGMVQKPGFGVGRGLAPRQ
Technique: RNA Bind-n-Seq
Molecule type: RNA
Matrix: in vitro
Tested at: 1 µM
Setting: whole 134-nt RNA, ends assumed
Added: 150 mM KCl
Relative to: input library
Reading: higher = stronger binding
For `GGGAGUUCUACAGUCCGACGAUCACCGUGCAGGUGGGCAUCUUUGGGAAGUGGGGCAAGGGGGGGAUAGGGAGGGGGGUAACACUUUGGGAACAGGUGGUCCCAGGUCGUUUCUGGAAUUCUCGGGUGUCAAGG`, the log2 enrichment was -0.618.
With `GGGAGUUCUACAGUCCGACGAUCUUGAACAUCUGCAGGAAAAGAGGCGAGAGGGCACUUUGAGAGUGGAUACCUACACUCUAGUGCAGCCUGAGGCAGAAGACCAUGUUGAGAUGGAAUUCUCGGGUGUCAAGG` the log2 enrichment was -0.139.
`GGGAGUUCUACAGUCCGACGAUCUUUAAGAGCAGCCAGGGAGAUAGUGGCGUUGACUUGAGUGCCGAGUCUCGGGAGUCGUCUGCGACCUCCUCGCAGCGCAGCUCCCCAUAUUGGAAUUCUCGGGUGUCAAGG` gave a log2 enrichment of 0.0733.
For `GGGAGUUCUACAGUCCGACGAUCAGUCCUGUGCUACACAUCGUAUGUACCGAAUCGGGGAAAAGGGGAAAAGGGAAAAGGAAAGUAUUAUGUUACGCCGUUCGGAUCUGCACUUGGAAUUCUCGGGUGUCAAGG`, the log2 enrichment was -0.0379.
`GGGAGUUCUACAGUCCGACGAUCUCAAGUCCUGUGCUACACAUCGUAUGUACCGAAUCGGUUUGGGGUUUGGUUUGGGAAAGUAUUAUGUUACGCCGUUCGGAUCUGCACUUCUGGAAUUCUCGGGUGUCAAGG` has a log2 enrichment of -0.235.
The log2 enrichment of `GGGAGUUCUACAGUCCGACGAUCCUCAAGUCCUGUGCUACACAUCGUAUGUACCGAAUCGGGGCCGGCCGGGGCCGGAAAGUAUUAUGUUACGCCGUUCGGAUCUGCACUUCCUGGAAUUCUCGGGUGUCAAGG` is reported as -0.681.
The log2 enrichment of `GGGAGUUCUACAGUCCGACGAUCGUCCUGUGCUACACAUCGUAUGUACCGAAUCAAAUUUUUAAACCCAAACCCCCCCAAAAAAGUAUUAUGUUACGCCGUUCGGAUCUGCACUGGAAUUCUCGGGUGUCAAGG` is reported as -0.662.
For `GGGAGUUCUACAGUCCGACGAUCAGUCCUGUGCUACACAUCGUAUGUACCGAAUCGGGGAAAAAAAGGGGAGGGGUGGGGAAAGUAUUAUGUUACGCCGUUCGGAUCUGCACUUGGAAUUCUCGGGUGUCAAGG`, the log2 enrichment was 0.821.

Series 3
Target: Sal-like protein 4, full length isoform A (SALL4, Homo sapiens, UniProt Q9UJQ4, residues 1-1053)
Sequence of UniProt Q9UJQ4 (whole entry, looked up): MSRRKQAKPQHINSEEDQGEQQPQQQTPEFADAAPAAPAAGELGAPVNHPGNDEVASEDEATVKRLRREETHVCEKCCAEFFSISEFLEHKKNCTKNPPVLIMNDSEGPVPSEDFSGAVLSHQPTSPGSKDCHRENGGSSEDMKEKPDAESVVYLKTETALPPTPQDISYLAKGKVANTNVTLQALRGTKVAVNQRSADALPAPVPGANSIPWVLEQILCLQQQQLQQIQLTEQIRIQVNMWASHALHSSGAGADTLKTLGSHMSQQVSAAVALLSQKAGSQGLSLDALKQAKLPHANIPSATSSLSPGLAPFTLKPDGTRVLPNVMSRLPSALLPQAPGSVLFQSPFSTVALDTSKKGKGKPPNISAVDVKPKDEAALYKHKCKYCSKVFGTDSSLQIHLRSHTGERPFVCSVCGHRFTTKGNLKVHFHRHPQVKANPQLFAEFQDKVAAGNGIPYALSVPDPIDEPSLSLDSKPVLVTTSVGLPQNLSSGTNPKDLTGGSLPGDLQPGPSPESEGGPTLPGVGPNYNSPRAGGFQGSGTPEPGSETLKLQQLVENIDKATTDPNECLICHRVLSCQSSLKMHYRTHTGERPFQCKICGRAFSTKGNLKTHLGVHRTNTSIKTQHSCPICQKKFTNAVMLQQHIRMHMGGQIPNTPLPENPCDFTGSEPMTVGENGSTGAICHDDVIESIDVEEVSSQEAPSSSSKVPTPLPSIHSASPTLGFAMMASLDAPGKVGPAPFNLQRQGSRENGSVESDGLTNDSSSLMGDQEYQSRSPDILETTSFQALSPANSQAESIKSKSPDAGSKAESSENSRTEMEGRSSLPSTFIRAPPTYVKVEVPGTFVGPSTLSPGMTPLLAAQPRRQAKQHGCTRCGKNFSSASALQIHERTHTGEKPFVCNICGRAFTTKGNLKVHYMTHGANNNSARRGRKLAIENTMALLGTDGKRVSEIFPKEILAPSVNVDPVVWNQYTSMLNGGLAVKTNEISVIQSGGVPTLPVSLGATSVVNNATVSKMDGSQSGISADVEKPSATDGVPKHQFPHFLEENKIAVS
Technique: universal PBM
Molecule type: double-stranded DNA, one strand shown
Matrix: in vitro
Tested at: 600 nM
Setting: 8-mer, flanks averaged, mean of replicates
Reading: higher = stronger binding
For `GATGTCAA`, the E-score was 0.1.
`GACATCGC` gave an E-score of -0.187.
The E-score of `AAATCAGT` is reported as 0.141.
The E-score of `CGGCCTAG` is reported as -0.261.
The E-score of `ATATTGGC` is reported as 0.212.
`CGAGTATC` has an E-score of -0.0874.
`AACGAGTG` gave an E-score of 0.0545.
With `GGGTTGAC` the E-score was -0.247.

Mixed results
With `PhoQ, residues 284 288 289 292 302 303 SIHLQL` the fold induction was 13.5 (PhoP, residues 12 14 15 18 19 MHTVL (Escherichia coli, UniProt P23836); Sort-seq, measured: YFP reporter; E. coli; PhoQ-PhoP variant library, added: 10 µM Mg2+; relative to: high Mg2+ state, higher = stronger signaling).

Excerpt of the above (series 2):
The log2 enrichment of `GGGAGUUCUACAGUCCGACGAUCGUCCUGUGCUACACAUCGUAUGUACCGAAUCAAAUUUUUAAACCCAAACCCCCCCAAAAAAGUAUUAUGUUACGCCGUUCGGAUCUGCACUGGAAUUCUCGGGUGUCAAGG` is reported as -0.662.
For `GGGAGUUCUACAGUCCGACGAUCAGUCCUGUGCUACACAUCGUAUGUACCGAAUCGGGGAAAAGGGGAAAAGGGAAAAGGAAAGUAUUAUGUUACGCCGUUCGGAUCUGCACUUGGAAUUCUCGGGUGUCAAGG`, the log2 enrichment was -0.0379.
